Published values pooled from the literature.
Each line is one published result; not all experiments were run side by side.

CC(C)NC(=O)N1CC=C(c2cc3c(Nc4ccc5scnc5c4)ncnc3s2)CC1  concentration (BALB/c mouse, plasma; oral, 10 mg/kg, 6 h): 0.42 ng/mL
O=C(Nc1nccs1)C(c1cc(F)ccc1O)N1Cc2ccccc2C1=O (stereo not drawn)  concentration (female FVB mouse, kidney; oral, 20 mg/kg, 4 h, single dose): 14.9 ng/mL
CCC(=O)NC1CC=C(c2cc3c(Nc4ccc5scnc5c4)ncnc3s2)CC1 (stereo not drawn)  concentration (BALB/c mouse, plasma; oral, 10 mg/kg, 6 h): 29.2 ng/mL
CCC(=O)N(C)c1ccc(Cl)c(Cl)c1  concentration (mouse, plasma; subcutaneous, 40 mg/kg, 15 min): 4200 nM
COc1cnc2cccc(N3CCc4c(cc(Cn5ccnc5)cc4-c4cn(C)nc4C(F)(F)F)C3=O)c2c1  concentration (female nude mouse, plasma; intraperitoneal, 100 mg/kg, 6 h, single dose, tumour-bearing): 9930 ng/mL
CC(C)Cn1c(SCC(=O)N2CCc3ccccc3C2)nc2cc(Cl)ccc2c1=O  concentration (male C57BL/6 mouse, brain; intraperitoneal, 10 mg/kg, 4 h): 245 nM
C#CCN(CCCNC(=O)CCCCC[N+]1=C(/C=C/C2=C(Cl)C(=C/C=C3\N(CCCCCC(=O)[O-])c4ccccc4C3(C)C)/CCC2)C(C)(C)c2ccccc21)CCCOc1ccc(Cl)cc1Cl  concentration (C57BL/6 mouse, plasma; intravenous, 5 mg/kg, 1 h): 590 ng/mL
Brc1ccccc1-c1nnc(CSc2nnnn2-c2ccccc2)o1  concentration (male C57BL/6 mouse, brain; intraperitoneal, 10 mg/kg, 24 h): 40 nM
CC(C)NC(=O)N1CC=C(c2cc3c(Nc4ccc5scnc5c4)ncnc3s2)C1  concentration (BALB/c mouse, plasma; oral, 10 mg/kg, 2 h): 47.7 ng/mL
COc1cccc(C2CC(c3ccccc3Cl)Nc3nc(N)nn32)c1 (stereo not drawn)  concentration (male CD-1 mouse, plasma; intraperitoneal, 20 mg/kg, 1 h, single dose): 95000 nM
CC(C)(O)c1ccc(N2Cc3c(ccnc3-c3ccc(F)cc3OCC(F)(F)F)C2=O)cc1  concentration (male C57BL/6 mouse, plasma; oral, 1 mg/kg, 6 h): ~167 nM
CC(C)C(=O)NC1CC=C(c2cc3c(Nc4ccc5scnc5c4)ncnc3s2)CC1 (stereo not drawn)  concentration (BALB/c mouse, plasma; oral, 10 mg/kg, 6 h): 8.76 ng/mL

Excerpt of the above:
CCC(=O)NC1CC=C(c2cc3c(Nc4ccc5scnc5c4)ncnc3s2)CC1 (stereo not drawn)  concentration (BALB/c mouse, plasma; oral, 10 mg/kg, 6 h): 29.2 ng/mL
